Assay results of several laboratories.
Parts stem from different laboratories: compare values within a part only. Substitutions count along the parent as printed.

Sample 1 — target: CCND1, cyclin fold, Cln2 fusion (human); technique: yeast growth competition, sequencing; sample: yeast; setting: weak parent motif; baseline: not given; reading: higher = stronger binding
Starting sequence: REPIN1 docking peptide (human); QSFRGWVALVLHL; partner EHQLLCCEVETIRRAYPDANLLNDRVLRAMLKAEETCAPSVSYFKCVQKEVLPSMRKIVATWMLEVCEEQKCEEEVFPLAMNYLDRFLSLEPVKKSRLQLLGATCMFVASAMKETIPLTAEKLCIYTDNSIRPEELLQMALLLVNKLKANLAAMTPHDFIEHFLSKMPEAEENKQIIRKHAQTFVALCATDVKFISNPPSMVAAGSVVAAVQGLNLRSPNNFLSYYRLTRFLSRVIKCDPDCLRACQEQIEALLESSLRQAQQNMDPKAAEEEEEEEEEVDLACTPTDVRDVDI
Change	normalised enrichment score
QSFRGWVALVAHL [L11A]	1.02
QSFRGWVALALHL [V10A]	0.443
QSFRAWVALVLHL [G5A]	0.671
QSFRGWVALVLHA [L13A]	0.69
QSFRGWVALVLAL [H12A]	0.364
QSFRGWVAAVLHL [L9A]	0.0706

Sample 2 — target: TEF, bZIP domain (human); technique: DHFR protein complementation; sample: yeast; baseline: wild-type JUN-FOS pair; reading: higher = stronger binding
Setting: single substitutions, most at no-binding floor
Starting sequence: JUN, bZIP domain (human); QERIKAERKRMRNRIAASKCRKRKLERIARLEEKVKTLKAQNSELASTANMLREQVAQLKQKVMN; partner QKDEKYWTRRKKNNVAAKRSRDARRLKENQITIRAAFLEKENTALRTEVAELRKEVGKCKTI
Change	binding fitness
A57S	-1.5 natural log
M51W	-1.45 natural log
A49Y	-1.5 natural log
E32A	-1.29 natural log
K39C	-1.62 natural log
A49M	-1.51 natural log
V35R	-1.53 natural log
A29G	-1.32 natural log
V35K	-1.21 natural log
L31K	-1.55 natural log
Q41Y	-1.32 natural log
E32C	-1.39 natural log
E32H	-1.54 natural log
A46V	-1.5 natural log
R53L	-1.48 natural log
L31D	-1.56 natural log
N42G	-1.47 natural log
K36A	-1.48 natural log
I28P	-1.4 natural log
T37F	-1.43 natural log
T37H	-1.44 natural log
L38N	-1.58 natural log
L45W	-1.46 natural log

Sample 3 — technique: DHFR PCA, deep sequencing; sample: yeast; with: (+)-ABA 58 µM; baseline: wild-type fitted maximum; reading: higher = stronger binding
Target: ABI1, truncated, D143A, DHFR fusion (Arabidopsis thaliana)
Setting: methotrexate growth selection, single substitutions
Starting sequence: PYL1, truncated, DHFR fusion (Arabidopsis thaliana); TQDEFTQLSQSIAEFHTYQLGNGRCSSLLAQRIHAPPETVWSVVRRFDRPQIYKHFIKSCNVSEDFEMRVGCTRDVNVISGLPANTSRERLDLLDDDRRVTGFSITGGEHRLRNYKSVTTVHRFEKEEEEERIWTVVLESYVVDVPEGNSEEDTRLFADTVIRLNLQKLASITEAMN
Change	relative binding score [%]
R46F	3.33
I133K	90.3
F56S	-3.4
H55Y	76.8
R123I	56.5
L82E	-0.234
F56K	-6.51
G108Q	6.85
V43I	84.6
T154S	29.5
V121I	82.9
P37G	21.6
K168H	80.1
T160L	79.3
R24Q	97.2
G23D	90

Sample 4 — technique: universal PBM; form: double-stranded DNA, one strand shown; sample: in vitro; tested at: not given; reading: higher = stronger binding
Target: Sal-like protein 4, full length isoform B (SALL4, Homo sapiens, UniProt Q9UJQ4-2, residues 1-616)
Setting: 8-mer, flanks averaged, mean of replicates
Target sequence (chain): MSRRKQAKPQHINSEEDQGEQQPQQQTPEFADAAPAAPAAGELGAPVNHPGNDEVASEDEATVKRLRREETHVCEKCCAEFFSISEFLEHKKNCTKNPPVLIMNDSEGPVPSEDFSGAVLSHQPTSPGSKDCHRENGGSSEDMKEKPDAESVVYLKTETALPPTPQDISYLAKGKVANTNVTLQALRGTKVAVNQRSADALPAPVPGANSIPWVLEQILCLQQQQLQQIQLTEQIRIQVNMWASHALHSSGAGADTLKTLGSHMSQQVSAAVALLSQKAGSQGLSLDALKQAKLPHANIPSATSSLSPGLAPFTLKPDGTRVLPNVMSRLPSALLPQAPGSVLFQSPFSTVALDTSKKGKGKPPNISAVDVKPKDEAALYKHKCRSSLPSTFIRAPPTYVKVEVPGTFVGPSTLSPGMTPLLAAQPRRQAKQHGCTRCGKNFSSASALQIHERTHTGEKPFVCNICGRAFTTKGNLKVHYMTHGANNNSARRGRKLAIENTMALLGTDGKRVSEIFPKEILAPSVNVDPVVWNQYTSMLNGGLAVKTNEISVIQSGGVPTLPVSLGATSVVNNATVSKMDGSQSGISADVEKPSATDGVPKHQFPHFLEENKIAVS
Strand	E-score
ACTTAACT	0.103
GGCATTGA	0.00795
CACTCCTC	-0.278
CACCATGG	-0.185
CTTAAAGC	-0.0738
ATAAAGCG	0.254
AGACGGCC	-0.319
CGGCATAC	-0.176
CTGAACAG	-0.0609
TAGCCATA	0.181
CCGCGGCA	-0.226
CTCGGGAA	-0.228
ACAATGCT	0.0406
GCCCGCTA	-0.208
ACGCACCG	-0.202
AGACCATC	-0.0842
AACCCGAT	-0.0753
AAACTAGC	0.0779
AAGGAACC	-0.132
CTCCCGAG	-0.358
CCCTTATC	-0.0271
CCCCCTAC	-0.257
CTACCTAC	0.0152
GTATAGCA	0.197
CTTGAACC	0.107

Sample 5 — technique: RNA Bind-n-Seq; form: RNA; sample: in vitro; tested at: 365 nM; baseline: no-protein control; reading: higher = stronger binding
Target: RNA binding protein fox-1 homolog 2, RRM domain, GST-SBP tag (RBFOX2, Homo sapiens, UniProt O43251-10, residues 100-194)
Setting: natural RNA segment, single round, ends assumed
Constant ends, left off below: GGGAGUUCUACAGUCCGACGAUC … UGGAAUUCUCGGGUGCCAA
Target sequence (chain): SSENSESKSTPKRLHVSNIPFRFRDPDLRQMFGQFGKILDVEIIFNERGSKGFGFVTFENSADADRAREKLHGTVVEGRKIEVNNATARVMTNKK
Strand	RBNS enrichment (R)
AUACUAUGUAUACUUGAGAAUCUUUAAGCAGCAAAUUAGUCAUUUGCAUGAAGCUCCAGGAUUACAGUAAACUAAAUCAGUGCAAAAUAAAGUUUAUUUUAUAAAAGAAA	0.489
AUGGUAGUAGAGGGAUGUGGGUGCCGCUGAGAUCAGGCAGUCCUUGAGGAUAGACAGAUAUACACACCACACACACACACCACAUACACCACACACACACGUUCCCAUCC	0.293
AUCUGGUGCCAAAUGAAGAUUUUUAGGAGUGAUUACUAAUUAUCAAGGGCACAGUUGUGGUACUGUCAUUGAUAAUAAUAUAGUUUUUUUUUUUUUCCUAAUUUUGACCU	0.845
CAGAAGGGUAAAACUGACUCUUAAUGAGAAAAGCUUUAUAAGUUCAAGGGCUGUAAAAUAUGAACUACUUAGGGUCGUUUGCCUUCCAUGGGAACUUGGCUAGACUUAGA	0.45
UUCACUGACAAGAGAAUAGAAACAAUAUGCCCACAUUGCUAUGUUUAUAAUUGCCAGAGCAGUAUUUUUUAUAUUGUAAACAGCGUGCGCAGCUCAGUGUGUGUCAGUGA	0.389
AGACAGCGGGUUGCAGCCACCCCACACUGACCGGCCGCUGAGGAGCAGAUAACCACUUGUUCUUUACUUUUUACAGGUGUGGGAUCCCGAUCCUGAGCUGUGUCCUCUGU	0.241
GAAAAUGAUACUUGUAAAUCUUCUAUUUAACCAUUUGUAAAAUCUAAAUCAUACCCCACUCCCCACUCCCAUUUCGAUUCUCCAGCGGCUCCUUUUAGUUUGUUGUCUUG	3.11
UUUCAGCUGUUGAUGUAGUUUGGUUUGGAAACUAAGGGACCUGCCCACAGGAGCUGGAGUGAAGGUCUCUCCCCUUCCGCCGAGCCCGUCUGCCAGAGAGUGUCAGCUCU	0.308

A few entries again (sample 2):
Change	binding fitness
T37F	-1.43 natural log
A49M	-1.51 natural log
L31K	-1.55 natural log
K39C	-1.62 natural log
L45W	-1.46 natural log
M51W	-1.45 natural log
L31D	-1.56 natural log
A29G	-1.32 natural log
E32C	-1.39 natural log
Q41Y	-1.32 natural log
R53L	-1.48 natural log
V35R	-1.53 natural log
I28P	-1.4 natural log
